Experimental data gathered from unrelated publications.
A part holds a random share of what one study measured.
UniProt Q9NZI8, sequence (178-364, looked up): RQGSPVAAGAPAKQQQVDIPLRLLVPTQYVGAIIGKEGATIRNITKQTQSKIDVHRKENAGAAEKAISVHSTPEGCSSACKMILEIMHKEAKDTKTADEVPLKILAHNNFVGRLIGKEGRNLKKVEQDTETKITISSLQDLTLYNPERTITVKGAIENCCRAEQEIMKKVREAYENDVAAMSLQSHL

Block 1
Target: Histone acetyltransferase KAT6A, winged helix 1, GST fusion (KAT6A, Homo sapiens, UniProt Q92794, residues 1-85)
Method: protein binding microarray
Form: double-stranded DNA, one strand shown
Matrix: in vitro
Concentration: not given
Notes: 8-mer, flanks averaged, mean of 2 arrays, mostly near background
Reference: not given
Reading: higher = stronger binding
Construct (chain): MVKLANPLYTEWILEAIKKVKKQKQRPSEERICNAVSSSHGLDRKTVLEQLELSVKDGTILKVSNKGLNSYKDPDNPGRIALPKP
`CGACGCCG` gave an E-score of 0.454.
`CACCAACC` has an E-score of -0.181.
`CGACAGGC` gave an E-score of 0.0532.
`AGTAGACC` has an E-score of -0.0214.
`AGGGCACG` has an E-score of -0.0294.
`ATAGACTA` has an E-score of -0.217.
The E-score of `GTTTCCTA` is reported as -0.14.
For `ACAAGCCA`, the E-score was -0.19.

Block 2
Target: Sal-like protein 4, full length isoform B (SALL4, Homo sapiens, UniProt Q9UJQ4-2, residues 1-616)
Method: universal PBM
Form: double-stranded DNA, one strand shown
Matrix: in vitro
Concentration: not given
Notes: 8-mer, flanks averaged, mean of replicates
Reading: higher = stronger binding
With `CACAGCAG` the E-score was -0.0443.
For `ACGTGACA`, the E-score was 0.00287.
`CCGGGTCC` gave an E-score of -0.424.
With `GATGTTCC` the E-score was -0.14.
With `GACAGGCC` the E-score was -0.249.
The E-score of `CTAGCACC` is reported as -0.191.

Mixed results
For `PhoQ, residues 284 288 289 292 302 303 SCKMEA`, the fold induction was 9.6 (PhoP, residues 12 14 15 18 19 SYFRT (Escherichia coli, UniProt P23836); Sort-seq, item: YFP reporter; E. coli; PhoQ-PhoP variant library, added: 10 µM Mg2+; reference: high Mg2+ state, higher = stronger signaling).
For `AAAAAAAA (biotin)`, the signal ratio was 0.0449 (Insulin-like growth factor 2 mRNA-binding protein 1, KH domains 1-2 (IGF2BP1, Homo sapiens, UniProt Q9NZI8, residues 178-364); protein domain microarray; RNA, in vitro; not given, poly(A) 8-mer RNA, whole probe, immobilized GST-fusion domains, most near background; reference: GST loading signal, higher = stronger binding).

Excerpt of the above (block 1):
`AGTAGACC` has an E-score of -0.0214.
